Experimental data collected from several papers.
Lines come from different studies, so protocols differ. Values joined by “and” are separate records of one study, mostly repeats; a detail may differ. ± marks the error that the study gave.

`COc1ccc(COC[C@](O)(CNCc2ccccc2)[C@@H]2CC[C@@H](C)C[C@H]2OCc2ccc(OC)cc2)cc1` gave an inhibition of 98.9% (HeLa; cell growth or viability, MTT; 10 µM, 72 h).
`CC(C)(C)c1cc(-c2ccc3cccnc3n2)nc(-c2ccc3cccnc3n2)c1.COc1ccncc1.[Cl-].[Cl-].[Ru+2].c1ccc2cc3nc4c5cccnc5c5ncccc5c4nc3cc2c1` has an EC50 of 71 ± 3.5 µM (SK-MEL-28; photocytotoxicity; visible light 400-700 nm, 100 J/cm2, oxygen 1%).
Under “calcium mobilisation signal”, `O=c1cc(Nc2ccccc2)c2ccccc2o1` is recorded as 2.46 ± 0.63 (COS-7 (untransfected); 500 µM, unit not given; relative to: 3 µM ionomycin).
For `CCN(CC)CC(=O)Nc1cccc(-n2cc(-c3ccc4ccc(-c5cn(-c6cccc(NC(=O)CN(CC)CC)c6)nn5)cc4c3)nn2)c1`, the fold regulation was 1.02 (RCC4; PCR angiogenesis array, measured: IFNG; 5 x IC50, 2 h, normoxia; relative to: untreated).
For `CC(=O)N[C@@H](CC(=O)O)C(=O)N[C@@H](CCC(=O)O)C(=O)N[C@@H](CCC(=O)O)C(=O)N[C@H](C(=O)NCC(=O)N[C@@H](CCC(=O)O)C(=O)N[C@@H](Cc1ccc(O)cc1)C(=O)O)[C@@H](C)O`, AP1 phosphorylation read “inhibited” (HaCaT; western blot; concentration not given, added: UVA).
`CN1CCCNC(=O)c2cccc(c2)C(=O)NCCCN(C)CCCNc2cccc3c2C(=O)c2cccc(c2C3=O)NCCC1`: “log2 fold change” -1.12 (SAS; RNA-Seq, measured: HDAC7 mRNA; 1 µM, 6 h; relative to: untreated cells).
`Cc1ncsc1-c1ccc(C(C)NC(=O)C2CC(O)CN2C(=O)C(NC(=O)CCCCCCCCCCN2CCCC(Nc3ncc(Cl)c(Nc4ccccc4S(=O)(=O)C(C)C)n3)C2)C(C)(C)C)cc1` (stereo not drawn) — result for “log2 fold change”: -1.29 (22Rv1; RNA-seq, measured: TIGD7 mRNA; concentration not given; relative to: DMSO).
The inhibition of `COc1ccccc1CNC[C@@](O)(COCc1ccccc1)[C@@H]1CC[C@@H](C)C[C@H]1OCc1ccccc1` is reported as 99.1% (A2780; cell growth or viability, MTT; 30 µM, 72 h).
For `N#C[C@@H]1CCCN1C(=O)CNC(=O)c1ccnc2ccc(OCCCN3CCN(C(=O)CCc4ccc(O)c(CN5CCN6CC(=O)[O][Al-]([18F])([O]C(=O)C5)[O]c5ccc(CCC(=O)N7CCN(CCCOc8ccc9nccc(C(=O)NCC(=O)N%10CCC[C@H]%10C#N)c9c8)CC7)cc5C6)c4)CC3)cc12` (stereo partly drawn), the internalized fraction was 63.9 ± 2.5% (HT1080 cells expressing human FAP; 15 min, 37 °C).
`CNS(=O)(=O)Nc1nccc(Cc2c(C)c3ccc(Oc4ncccc4F)cc3oc2=O)c1F` has an IC50 of 0.00546 µM (A101D; cell viability; 7 days).
`CCC(=CCc1c(O)cc2c(c1O)C(=O)CC(c1ccccc1O)O2)CC` (stereo not drawn) has an inhibition of 39.1% (HeLa; cell growth or viability, MTT; 30 µM, 48 h).
`O=S(=O)(Nc1ccc(OC(F)(F)F)cc1)N1CCCC(C2c3ccc(F)cc3CCc3cc(F)ccc32)C1` (stereo not drawn): cell migration “decreased” (D341; Transwell; 1.5 µM, 24 h).
`CSC(=S)N/N=C(\C)c1ccc(S(=O)(=O)N2CCC(C)CC2)cc1` gave a necrotic cells of 2.15% (MCF7; annexin V/PI; concentration not given, 72 h, at IC50).
`Cc1ccccc1S(=O)(=O)NC12CCCC(C)(CCC3C1CC3(C)C)C2` (stereo not drawn) has an inhibition of under 50% (HT-29; cell growth or viability, CCK-8; 10 µM).
Under “cells in G2/M phase”, `Cc1cc(Cl)cc(-c2ccnc3cc(CN4C(=O)C5C(C4=O)C5(C)C)sc23)c1C[C@@H]1CNCCO1` (stereo partly drawn) is recorded as 11.9% and 14.6% and 9.94% (CHP-212 resistant cells (pooled); PI flow cytometry; 0.3 µM, 24 h).
The cell lysis of `CC[C@H](NC(=O)[C@H](CC(C)C)NC(=O)[C@H](CC(=O)O)NC(C)=O)C(=O)N[C@@H](CC(=O)O)C(=O)COC(=O)c1c(C)cccc1C` is reported as 91.3% and 99% (THP-1 cells, LPS-primed; pyroptosis, LDH release; 25 µM, LPS 1 µg/mL, 4 h, added: nigericin 5 µM, 2 h).
`CC12CCCC(n3cc(C(=O)N4CCOCC4)nn3)(C1)C1CC(C)(C)C1CC2` (stereo not drawn) has an inhibition of under 50% (HT-29; cell growth or viability, CCK-8; 10 µM).
The inhibition of `CCC(=CCc1c(O)cc2c(c1O)C(=O)CC(c1c(O)cccc1OC)O2)CC` (stereo not drawn) is reported as 8.04% (HeLa; cell growth or viability, MTT; 6.25 µM, 48 h).
